Results of several laboratories.
Parts stem from different laboratories: compare values within a part only. Substitutions count along the parent as printed.

Study 1 — technique: RNA Bind-n-Seq; form: RNA; matrix: in vitro; tested at: not given; relative to: input RNA pool; reading: higher = stronger binding; endpoint: bound/input enrichment
Target: RING finger protein unkempt homolog, zinc fingers 1-6, GST-SBP tag (UNK, Homo sapiens, UniProt Q9C0B0, residues 30-357)
Notes: RNA with constant flanks, human and mouse sites, ends assumed
Shared flanks, not repeated: GGGAGUUCUACAGUCCGACGAUC … CAACAGAGGAUUGAGCAUCA
Residues (chain): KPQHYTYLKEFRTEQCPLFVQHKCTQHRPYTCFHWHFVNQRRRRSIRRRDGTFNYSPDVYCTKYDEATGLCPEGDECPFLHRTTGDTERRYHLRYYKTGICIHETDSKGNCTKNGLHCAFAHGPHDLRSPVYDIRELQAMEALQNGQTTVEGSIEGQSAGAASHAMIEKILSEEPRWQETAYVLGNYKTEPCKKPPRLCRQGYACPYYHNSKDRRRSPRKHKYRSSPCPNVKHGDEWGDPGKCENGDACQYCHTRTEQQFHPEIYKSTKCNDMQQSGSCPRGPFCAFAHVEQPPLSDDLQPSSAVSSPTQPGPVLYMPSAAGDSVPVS
UCUUGAAACUUAAACUCUGUGCUUGUAGGAUACUGUAACCUUUUUGUCUUUUUUUUUUUUUUUUUUUUUAAACCUCCACCUCCAGUGGCUGUGACUGGUCCCAGUGAUUAUACGUUAUUG: 1.96 ratio
GUUCUGUGUAACUUCAAUGCUUUGUGCUAAGUCAAGAGGAACAAAUAUGUUGCUAUUCUGGUUAAUUUAUCCUAAAAACUGUUAAGUCACCAACACAGAAAUACUGAAUAUAACCAAAGC: 0.0735 ratio
CUGAUGAAAUUGCUAGAUGAGGCUCUAAAGGAGGUAGAUCAGAUUGAAUUGAAACUGAGCAGUUAUGAGGAAAUGCUCCAAAGUGUAAAAGAACAAAUGGAUCAGAUCUCUGAAAGCAAC: 0.257 ratio
UGAGAGUUCAGAACAUAUGGCAGCUGUUUGUGAAGCUAUUUUUUACUGACAAAUUUUGAUAAGUUUGGCUACUGUAAUGGAAAGUAGGCUUUCUUAAGCACUGACUACAUUUGGAUUCUU: 0.0884 ratio
CAAACAUGGCCUCAUUGGAAAGGACCAGCCAGGUCUGGUGUGGAGGUCCUAUUUAAUGAAUUAGAAAUUCCCGUGGAAGAAUACUCCUUUGGUAGAUCAAAGAUAUUCAUCCGAAACCCA: 0.429 ratio
UGUCUUCAAUGCAUUCCAUGGCAUCACAUCUGUCCUGGGGCCUGACCCGUCCACCCUUCAGUGUCUCUGUCUUUUAAGAUCUUCAACUGCUUCUUUAUCCCCGCCCCUCCAGCUUAUUUU: 0.366 ratio
AAAAAACCCCGAUUUUAGAUGUGAUAUUUAGGCUUUCAUUCCAGUUUGUUUUGUUUUUUUGUUUAGAUACCAAUCUUUUAAAUUCUUGCAUUUUAGUAAGAAAGCUAUCUUUUUAUGGAU: 11.6 ratio
UCUGUCAGAUUGCUUUCAGGGAUCAGGGAAGGUCUGUAGGCAGAAGGUAUGAUGGUGCCCUAGCAGAGUAUGAAACCUUACUCAUUACAGUAAUUAAUUAGGGAAGCAGCCGCAGGCCGU: 1.17 ratio

Study 2 — technique: DHFR PCA, deep sequencing; matrix: yeast; added: (+)-ABA 4.8 µM; relative to: wild-type fitted maximum; reading: higher = stronger binding; endpoint: relative binding score
Target: ABI1, truncated, D143A, DHFR fusion (Arabidopsis thaliana)
Notes: methotrexate growth selection, single substitutions
Starting sequence: PYL1, truncated, DHFR fusion (Arabidopsis thaliana); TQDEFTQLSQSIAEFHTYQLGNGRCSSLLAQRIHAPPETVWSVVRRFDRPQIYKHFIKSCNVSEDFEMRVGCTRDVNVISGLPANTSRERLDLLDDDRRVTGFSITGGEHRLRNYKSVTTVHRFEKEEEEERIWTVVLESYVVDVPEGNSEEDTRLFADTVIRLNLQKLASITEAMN; partner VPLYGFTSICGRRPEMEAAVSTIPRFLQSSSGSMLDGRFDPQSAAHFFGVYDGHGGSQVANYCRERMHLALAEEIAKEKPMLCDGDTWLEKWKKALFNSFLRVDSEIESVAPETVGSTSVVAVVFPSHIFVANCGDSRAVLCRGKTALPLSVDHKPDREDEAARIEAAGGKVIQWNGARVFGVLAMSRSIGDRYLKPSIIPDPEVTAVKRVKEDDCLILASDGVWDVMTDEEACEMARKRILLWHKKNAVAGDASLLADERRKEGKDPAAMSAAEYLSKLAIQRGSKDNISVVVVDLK
E151K: 73.8%
H16L: 3.75%
V143M: 13.8%
R113N: 64.7%
K126N: 86.8%
A175S: 77.6%
K168V: 38.8%
W134E: 91.5%
I57K: -9.69%
T1P: 73.9%
N149K: -3.42%
Q19G: 58.4%
L164V: 73.9%
I79Q: 53.7%
D48A: -13.5%
P37L: 25.6%
S80P: 1.73%

Study 3 — technique: protein binding microarray; form: double-stranded DNA, one strand shown; matrix: in vitro; tested at: not given; relative to: not given; reading: higher = stronger binding; endpoint: E-score
Target: Histone acetyltransferase KAT6A, winged helix 2, GST fusion (KAT6A, Homo sapiens, UniProt Q92794, residues 85-181)
Notes: 8-mer, flanks averaged, mean of 2 arrays, mostly near background
Target sequence (chain): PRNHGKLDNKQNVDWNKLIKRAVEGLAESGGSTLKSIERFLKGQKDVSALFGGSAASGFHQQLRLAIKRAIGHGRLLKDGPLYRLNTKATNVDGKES
ACGTACCT: -0.243
ATTCACGA: -0.135
ATAATCAA: 0.0388
CCCACAGA: 0.0215
TCACAACA: 0.112
ATGCGTTC: 0.117
GGCGACTA: 0.00963
CCGCTCGA: 0.0895
ACTATGCC: 0.029
AAGCGCGT: -0.0865
AGGTCGCG: 0.168
GCGGTCAA: 0.133
ACCACCAC: -0.0715
ACAAATCA: -0.0454
CCAAATGG: 0.139
ACACGCCG: 0.0229
AAAGTCGG: -0.0162
GGACGAGA: 0.153
CAGGATCC: -0.0605
CGCGTCGC: 0.191
AGTCTATC: -0.0453
AAATTTAT: 0.0146
AAGATATT: 0.0325
AGGTTGCG: 0.0235
AACCGTTA: -0.224

Study 4 — target: CCNE1, cyclin fold, Cln2 fusion (human); technique: yeast growth competition, sequencing; matrix: yeast; notes: weak parent motif; relative to: not given; reading: higher = stronger binding; endpoint: normalised enrichment score
Starting sequence: HASPIN docking peptide (human); ASLRSVLFGLMNS
R4A: 0.0105
G9A: 1
M11A: 0.951
V6A: 0.765
L10A: 1.04
S13A: 0.505

Further values, each from its own experiment
PhoQ, residues 284 288 289 292 302 303 TSTLRA
fold induction (PhoP, residues 12 14 15 18 19 YHFSH (Escherichia coli, UniProt P23836); Sort-seq, refers to: YFP reporter; E. coli; PhoQ-PhoP variant library, added: 10 µM Mg2+; relative to: high Mg2+ state, higher = stronger signaling): 3.98

Excerpt of the above (further values, each from its own experiment):
PhoQ, residues 284 288 289 292 302 303 TSTLRA
fold induction (PhoP, residues 12 14 15 18 19 YHFSH (Escherichia coli, UniProt P23836); Sort-seq, refers to: YFP reporter; E. coli; PhoQ-PhoP variant library, added: 10 µM Mg2+; relative to: high Mg2+ state, higher = stronger signaling): 3.98
